Experimental data collected from several papers.
Every numbered part comes from another study and shows a few of its results, in no order. Substitutions count along the parent as printed.

Set 1 — method: competition protein-binding microarray; form: double-stranded DNA, one strand shown; medium: in vitro; concentration: 2 µM; with: Pho4 competitor, 0.05 µM; direction: higher = stronger binding; all sequences stand within: … GTCTTGATTCGCTTGACGCTGCTG
Target: Centromere-binding protein 1, full length, His-tagged (CBF1, Saccharomyces cerevisiae, UniProt P17106, residues 1-351)
UniProt P17106, sequence (whole entry, looked up): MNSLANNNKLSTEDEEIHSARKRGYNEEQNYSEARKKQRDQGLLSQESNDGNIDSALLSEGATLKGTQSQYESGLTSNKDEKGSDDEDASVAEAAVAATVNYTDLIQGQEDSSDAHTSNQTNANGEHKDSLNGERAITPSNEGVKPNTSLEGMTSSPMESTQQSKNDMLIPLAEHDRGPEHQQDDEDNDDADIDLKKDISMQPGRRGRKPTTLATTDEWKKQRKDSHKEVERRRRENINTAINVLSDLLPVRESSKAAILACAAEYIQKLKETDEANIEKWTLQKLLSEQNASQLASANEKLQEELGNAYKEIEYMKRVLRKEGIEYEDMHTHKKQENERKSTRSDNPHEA
Setting: whole 60-bp probe, lowest competitor level
`AGTCTTGATTTCTTGCGCATGACGGATTAAATTCTT` gave a fluorescence intensity of 155 a.u.
`CTTTCCCGATCTTGTCACTATACTTTAGCACATTTG` has a fluorescence intensity of 78.2 a.u.
The fluorescence intensity of `CTAACGAAGGTTTTTCACGTGAGATACAAGCCAAGT` is reported as 1040 a.u.
For `TGCGCAACAACTTGGACCGTGGGTGTATGTCTAGAA`, the fluorescence intensity was 57.5 a.u.
With `CATACCCAACCTTGCGGTGTGGGTGAAGATATTTGT` the fluorescence intensity was 57.5 a.u.
For `TCAAAATTGAACGGCCACGTTGAGGGACCGTTGTCA`, the fluorescence intensity was 75.5 a.u.
`AACGAACCCGCAAGACGCGTGCAAAGCTGGTTAGAT` gave a fluorescence intensity of 67.7 a.u.
`TCAAGTAGAATACTACACGTGCAAACGGTAGCAAGC` has a fluorescence intensity of 1150 a.u.
With `AAAGCGGTAATTTGTACCGTGGGTGCAGATATCTAT` the fluorescence intensity was 59.1 a.u.
The fluorescence intensity of `TACGACGAGACTTGGCATGATCAAAGTGCAAAAGAA` is reported as 71.9 a.u.
`TGTTTCAAGTCTTCCGACATGACAGCGTAGTTATGG` has a fluorescence intensity of 80.9 a.u.
The fluorescence intensity of `CTTTCCCGATCTTGAGTCGTGGGTGTAGCACATTTG` is reported as 69.1 a.u.
The fluorescence intensity of `AAATTACTAAGTTGAGACGTGGGTGACGCCGTATGA` is reported as 64.2 a.u.
With `CCTGGAGAACCGGGAGGCGTGGGTAAGTTGCTTGAA` the fluorescence intensity was 69.7 a.u.
For `TTGACGGAAAAACGCTGTGTGACGGAGACTAGCCTG`, the fluorescence intensity was 50.7 a.u.
`TTTAGTGCGAACGCCTACGTGTCCTGTTAACTTATC` gave a fluorescence intensity of 73.5 a.u.
With `CTATGACGAATCAATGACATGACAACATTTACCAAT` the fluorescence intensity was 90.4 a.u.
The fluorescence intensity of `CAACATGCCAAATCGCACGTGACTCGAAACTATGGA` is reported as 9370 a.u.
`GGCCATCCGCTCCGTCACGGGCCAATCGAAGCTCTT` has a fluorescence intensity of 106 a.u.

Set 2 — method: protein binding microarray; form: double-stranded DNA, one strand shown; medium: in vitro; concentration: not given; reference: not given; direction: higher = stronger binding
Target: Histone acetyltransferase KAT6A, winged helix 1, GST fusion (KAT6A, Homo sapiens, UniProt Q92794, residues 1-85)
Setting: 8-mer, flanks averaged, mean of 2 arrays, mostly near background
Residues (chain): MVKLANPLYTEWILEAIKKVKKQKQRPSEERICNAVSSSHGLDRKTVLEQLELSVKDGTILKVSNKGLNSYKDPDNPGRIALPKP
`CATTTCAC` has an E-score of -0.146.
The E-score of `GGTACGTA` is reported as -0.0388.
`CGGAGCAC` has an E-score of 0.156.
`TAGCTCCA` has an E-score of -0.188.
`GAAGAAAC` gave an E-score of -0.191.
The E-score of `ATACCCTA` is reported as -0.301.
The E-score of `AACGTGGG` is reported as -0.228.
With `ACAGCTCG` the E-score was -0.0278.
`CGCGAACG` has an E-score of 0.273.
For `AGAATAAC`, the E-score was -0.0965.
For `ACGCACGG`, the E-score was 0.377.
For `ACTGGGAA`, the E-score was -0.183.
`AAGAATAC` has an E-score of -0.101.
With `GTGGCAAC` the E-score was -0.045.
The E-score of `GCTCGTAA` is reported as -0.0841.
For `GCTGCAAC`, the E-score was 0.104.
For `ACAATACC`, the E-score was 0.025.
The E-score of `GAGTGCGC` is reported as 0.348.
For `ATTTGGCC`, the E-score was -0.0933.
`AGAGTTGA` gave an E-score of -0.257.
`TCCAGGGA` has an E-score of -0.158.
`CTAGCAGA` gave an E-score of -0.24.
For `ACATAGGC`, the E-score was -0.142.
With `ACATGCTC` the E-score was -0.0952.
The E-score of `GGATTGAA` is reported as -0.169.

Set 3 — method: RNA Bind-n-Seq; form: RNA; medium: in vitro; concentration: 100 nM; reference: input RNA pool; direction: higher = stronger binding
Target: RING finger protein unkempt homolog, zinc fingers 1-6, SBP tag (UNK, Homo sapiens, UniProt Q9C0B0, residues 30-357)
UniProt Q9C0B0, sequence (30-357, looked up): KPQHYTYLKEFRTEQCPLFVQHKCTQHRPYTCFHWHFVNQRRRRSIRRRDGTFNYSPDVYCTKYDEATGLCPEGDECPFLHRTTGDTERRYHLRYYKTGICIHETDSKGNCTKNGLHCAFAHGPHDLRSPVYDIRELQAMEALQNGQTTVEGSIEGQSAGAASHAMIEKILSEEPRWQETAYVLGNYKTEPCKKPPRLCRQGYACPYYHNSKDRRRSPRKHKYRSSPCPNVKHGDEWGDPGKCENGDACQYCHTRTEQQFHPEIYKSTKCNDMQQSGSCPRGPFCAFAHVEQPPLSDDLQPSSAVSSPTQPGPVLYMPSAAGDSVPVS
Setting: RNA with constant flanks, vertebrate orthologous sites, ends assumed
All sequences stand within: GGGAGUUCUACAGUCCGACGAUC … CAACAGAGGAUUGAGCAUCA
`CAACUCAAUGGUGGAGGGUUCAGAACUCAAAAAGGUCCGCUCCAACUCUAGAAUAUACCAUAGGUAUUUUUUACUAGAUGCUGACAUGCAGAGCUUGAGGUGGGAGCCAUCUAAGAAGGA` has a bound/input enrichment of 0.288 ratio.
With `CUCAUUUCCAGGUUGGCUCUAGUGGAAAAGUCAUAGGAAUUGACCACAUUAAAGAGCUAGUAGAUGACUCAAUAAAUAAUGUCAGAAAGGACGAUCCGGUGCUUUUGUCUUCAGGGAGAG` the bound/input enrichment was 0.547 ratio.
For `GGACUGGGGGGUGGUGGGUGGGAAGAAGAUGUAUGGAUGUUAUUGGCAUUUUUAAGUGUUCAGAGGUGGGUUUUUUUUCCCCCCUUUCUGUUUUGUUUUUGUUUUUUUUUCCCUUCAAUU`, the bound/input enrichment was 0.731 ratio.
`AUUUAGAAUGUUAAUAAAUUGCUCUGAGAUUCCUCAAGUCCAUUUUGUAAGAUCAGACCAUAGGUGGGUGUUGUUUCUUUUAAGUUUGUGUACUGUGUCCAAUGUUACAUUUUUAAAAGU` has a bound/input enrichment of 3.25 ratio.
`UUCAGGCACAGUUGUCCAGCACUCAGCAUUCUUUGCAAGGUUACCUAACCAGUGGAAGCGAAGUCGCUUUCCAGGAUCCGUCAAGGCAAUCAGCCAUGCCCUGCAGCCCAAUCGGAGACA` has a bound/input enrichment of 0.368 ratio.
For `UGGGUUAUUCCUAUUAUUAUCAAGUAGCUGGAAUUGUGAAGGUUGGAGUAGUUAGAUCUUUAGCUUUUAUUCCUUUUUUUUGUAUUACUAUCCAUGUGUAUAAAUUAUUGAUCAUGUUGC`, the bound/input enrichment was 2.09 ratio.
`AGCCGGACUAGAUAGGGGAAAAAAAAGCGUAAAAAUAUUACACAAUAUAUAUAUAUACAGGCAACAAAACUCAGCCAGCCGUCUGGAACGUUAGAGCUCUAAGCAGACACACGCGGCCCC` has a bound/input enrichment of 0.54 ratio.
For `UGACCACACAUACAAAAUGUGCUUUGAGCGGUGGGCGUGAGUGAAGCCAAGGCUUGAGUAGAAUUCACUUUUUAGACCUAUACAGCACGGAAGCGUCCAUGAGCCAGAGGUGAGUUCUUA`, the bound/input enrichment was 0.361 ratio.

Set 4 — target: CCNE2, cyclin fold, Cln2 fusion (human); method: yeast growth competition, sequencing; medium: yeast; setting: strong parent motif; reference: not given; direction: higher = stronger binding
Starting sequence: CDKN1B docking peptide (human); PSACRNLFGPVDH; partner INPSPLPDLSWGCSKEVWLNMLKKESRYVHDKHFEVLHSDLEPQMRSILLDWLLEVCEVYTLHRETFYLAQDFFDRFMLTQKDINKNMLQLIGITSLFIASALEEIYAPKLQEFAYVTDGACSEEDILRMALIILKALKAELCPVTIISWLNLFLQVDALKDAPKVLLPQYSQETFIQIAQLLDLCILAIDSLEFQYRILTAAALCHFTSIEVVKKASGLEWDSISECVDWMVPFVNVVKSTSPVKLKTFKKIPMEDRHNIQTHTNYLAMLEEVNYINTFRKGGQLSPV
`PSACRNIFGPVDH [L7I]`: “normalised enrichment score” 0.585.
Under “normalised enrichment score”, `PSACRNWFGPVDH [L7W]` is recorded as 0.0941.
Under “normalised enrichment score”, `PSAERNLFGPVDH [C4E]` is recorded as 0.0781.
`PSACRNDFGPVDH [L7D]` — result for “normalised enrichment score”: 0.14.
`PSACRNLFGPVTH [D12T]` — result for “normalised enrichment score”: 1.52.
`PSACHNLFGPVDH [R5H]`: “normalised enrichment score” 0.312.
`PSQCRNLFGPVDH [A3Q]` — result for “normalised enrichment score”: 0.561.
`PSACRNLFGPHDH [V11H]` — result for “normalised enrichment score”: 1.65.
`PSACKNLLGPVDH [R5K F8L]` — result for “normalised enrichment score”: -0.143.
